# Measurements pooled from the literature.
# Numbered parts are unrelated; each lists some results of a single study.

# Sample 1 — technique: RNA Bind-n-Seq; form: RNA; sample: in vitro; concentration: not given; relative to: input RNA pool; direction: higher = stronger binding
# Target: RING finger protein unkempt homolog, zinc fingers 1-6, GST-SBP tag (UNK, Homo sapiens, UniProt Q9C0B0, residues 30-357)
# Chain of UniProt Q9C0B0 (30-357, looked up): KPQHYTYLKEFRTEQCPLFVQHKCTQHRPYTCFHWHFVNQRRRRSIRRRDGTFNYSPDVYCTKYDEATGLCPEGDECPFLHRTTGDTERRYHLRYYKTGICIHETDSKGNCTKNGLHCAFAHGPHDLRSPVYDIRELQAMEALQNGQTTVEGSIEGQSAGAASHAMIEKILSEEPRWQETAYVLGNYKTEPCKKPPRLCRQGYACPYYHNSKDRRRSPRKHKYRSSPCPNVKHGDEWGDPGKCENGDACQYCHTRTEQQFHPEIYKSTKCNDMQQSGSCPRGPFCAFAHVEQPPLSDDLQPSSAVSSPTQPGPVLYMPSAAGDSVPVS
# Setting: RNA with constant flanks, human and mouse sites, ends assumed
# Shared flanks, not repeated: GGGAGUUCUACAGUCCGACGAUC … CAACAGAGGAUUGAGCAUCA
Oligonucleotide,bound/input enrichment
GAGUGAAGGACUGUAAUCAUAAUAUGCUCACUACUUGCUCUUGUUUUUGUUUUAAUAAACUAUAGUAGUGUUUUAAAAAGUUAAAUGAAGAAUAAACGCAAAUAUAAAAGCUCUGAUUUU,0.305 ratio
CUUAAUUUUCUUUCUUGUUCGGUACCUACAUUGGAACCAUCAAAAACAAUUAUUUCAGUAAACCGUAGCCAUGAGGGAAAUCGUGCACAUCCAGGCCGGACAGUGUGGCAACCAGAUCGG,0.24 ratio
AGCAAGGUGGUACAGAAGUUGGUCCUGCCCUUUGGGAGGUUGAACUACAUGCCCCUGGAGCAGCAAUUUAUGCCCUGCCUUGAGAGGAUCCUGGCUCGGGAAGCAGGGGUGGCACCCUUG,0.102 ratio
GGCCAUGGUGAUGACAACCAUGCAGAUGCUGACCGAUCACCUAUAUUUCUUCAGUUUAUUGAUUGUGUUUGGCAGAUGACAAGACAGUUCCCUUCAGCAUUUGAGUUUAAUGAAUUAUUC,0.473 ratio
UUUAUUUACGUCUUAUUUAUGGUUGAGGAAUUCCGCAAAGAGCCCGUGGAAAACAUGGAUGACGUCAUCUACUACGUGAAUGGCACUUAUCGUCUGCUGGAGUUUGUUGUGGCCCUCUGU,0.28 ratio
CCUCCUCCAUCGAGGGAGAGGCCUGAAGGGACUGCCUACUGCAGCUCGUUGCCAAUCACAUAGCUUUCUAUUUGUUAAGUAUAAAUUUAAAUUUAAAAUCACUUUUUUAACGAAUGGGGG,0.563 ratio
UCCUUCCCACAUCACAGGGCUACCUUGAGACUUUCUGAGAAGUUUAUUCUUCUCCUUAUUCUUAGUGCCUUCAUCACUCUGUGUUUUGGGGCAUUCUUUUUCCUUCCAGACUCUUCAAAA,0.407 ratio
CUACCUGAAGUGACUGAUGAGUAUAAAAAUGAUGUAAAAAACAGAUCUGUUUAUAUUAAAGGCUUCCCAACUGAUGCAACUCUUGAUGACAUAAAAGAAUGGUUAGAAGAUAAAGGUCAA,0.273 ratio
AUGUCUGCCAGAACACAAUUUAUAUGCCGAAUUAUUGGCUCCAUUAAACUUUUUAAAAACUUUAGCACUGGUUACUUUUUUCCAUUGCAUUCAAUAUGUAGCACCUCCUCACCUCAUGAG,7.33 ratio
AGGGCCGCAACUGCCGUCCAGGCUUAAGAGGGCUUCCGCGAUGCCUUUGUCCGGAGUAGUCAGUCAGCUCCUGGAACUGUGAGUCCGCCCCAGCUCCCAGUCCCUUCCCUCACGUCCUGC,0.149 ratio
GAAAGCACUACCCUAAGCCAUGAGGAUCUCCAUGCUUUGCUAACCAAGAUAACUGUUUUCUCUUUGUAGAAGUUUUGUUUUUGAAAUGUGUAUUUCUAAUUAUAUAAAAUAUUAAGAAUC,2.18 ratio

# Sample 2 — technique: RNA Bind-n-Seq; form: RNA; sample: in vitro; concentration: 365 nM; relative to: no-protein control; direction: higher = stronger binding
# Target: RNA binding protein fox-1 homolog 2, RRM domain, GST-SBP tag (RBFOX2, Homo sapiens, UniProt O43251-10, residues 100-194)
# Setting: natural RNA segment, single round, ends assumed
# Shared flanks, not repeated: GGGAGUUCUACAGUCCGACGAUC … UGGAAUUCUCGGGUGCCAA
# Residues (chain): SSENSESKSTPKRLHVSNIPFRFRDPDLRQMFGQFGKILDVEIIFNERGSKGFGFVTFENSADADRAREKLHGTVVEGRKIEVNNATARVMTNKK
Oligonucleotide,RBNS enrichment (R)
CUUGUGAGUGCCAAUGUAUAAUGCAGUAAAGACUACAUGGAAACACAAACUCAGUCCUUAAAACCCCAGGAGUUGAGGGGAAGUGUUGGCACAGUGAUGGCCUGUGUCAC,0.478
UGGUCCUAAAACAUAAAAUCUGAUGGACAAACAGAGGGUUGCUGGGGGGACAAGCGUGGGCACAAUUUCCCCACCAAGACACCCUGAUCUUCAGGCGGGUCUCAGGAGCU,0.358
UGCUUUUUUAAAAUAUAUAUAUAUUUAUAAGAGAUCCUUUCCCAUUUAUUCUGGGAAGAUGUUUUUCAAACUCAGAGACAAGGACUUUGGUUUUUGUAAGACAAACGAUG,0.737
CCAUGCGCCCGCCCUGCCCCAACUGUGUGCUGGUCCUGCUGUGGCCGAGGGGACCGGGUGUGUUUGGCUCUUUAUGCCCCUCCCGCUGUGGUCCUGGAACUCUUCACCAG,0.286
AUACUCUAUGGUAGAACUAAGGCCUUUCCUUUCUUGGCCAAAGUCUUUACCCUAUUUAACCCUUUGUAUAUUUCUGACUGCUCACUGUUCAUAUUAUAGGGGACCAGAUU,0.423
GAAGGACGCUGUCCAGCUAGAGACGCUGGAGCUCCCCCCCGGCUGUGUCCGCAGAGCCGGGGCCGGGGACUUCAUGCGCUACCACUACAAUGGCUCCUUGAUGGACGGCA,0.303
AGAUCCCGUCACUAUCUGGCAAAUGCACCAUGCGGCCAGGCUGCAGGGGCUCUGGGCAUGCUGUGCCUGAGCUCCCUCAAAUGCCCAACCUAAGGCUUUGUGGGUAAGAU,0.354
AAAGGAGGUCUUCUCUCUGCCCUGGAGGAGGACAUAUAGCUGAUUUCUGUUCUUUUAACUCUUAAAAAUCUCUUUCUAAACUUGGAGUGGUUUAUAUUCGCCCGAGCUCC,0.751
GUUCUGGACUCUGAUGUGUGUGGAGGGAUGGGGAAUAGAACAUUGACUGUGUUGAUUACCUUCACUAUUCGGCCAGCCUGACCUUUUAAUAACUUUGUAAAAAGCAUGUA,1.69
ACCUUCAAGCACCCUGUUCCCUCUUUCUUUCUUUUGUGUUGGAUUUGUUUAAAAACCAAAUAAGCAUCUGUGUAACCUCCACAGUAGCAUUUCUUAUUUGUUUGGUCACU,2.33
UUAUAGGUAUGAACCAACAUGCCCAGCUCUCUCUUCUCUCGUGAAGUCAUACCCUGUGAGUAACUGGCCUGUAAUGGCGCUCUUCCUAGGACAGUGGUGACCUUGUCUGU,0.418
CCUAUAACAAAAAUAAUCUAGUUUUCAUUUCCUUACUAGCUAGAUGCGAAUUUGUCUUUUUGAAUGACCCUGUCAAUAAGCCAGAAAGGGCAACCCAGAAAAAGUGCUCC,0.885

# Sample 3 — technique: protein binding microarray; form: double-stranded DNA, one strand shown; sample: in vitro; concentration: not given; relative to: not given; direction: higher = stronger binding
# Target: Histone acetyltransferase KAT6A, both winged helices, GST fusion (KAT6A, Homo sapiens, UniProt Q92794, residues 1-181)
# Setting: 8-mer, flanks averaged, mean of 2 arrays, mostly near background
# Residues (chain): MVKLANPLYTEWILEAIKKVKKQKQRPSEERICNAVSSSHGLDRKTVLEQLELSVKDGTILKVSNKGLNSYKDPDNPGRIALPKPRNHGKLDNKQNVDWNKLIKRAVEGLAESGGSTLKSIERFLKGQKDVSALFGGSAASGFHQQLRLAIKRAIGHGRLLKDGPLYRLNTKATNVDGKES
Oligonucleotide,E-score
GAACCTTA,-0.0724
CACGGGGC,0.108
AATGACTG,-0.17
TAAGTCCA,-0.178
CCATGCAG,-0.1
AGAGTGAT,-0.223
CAACTTGA,-0.0787
GTTATTTA,0.0558
GCTCTTCA,-0.0586
CTCAGGAA,-0.132
AGACTTAG,-0.136
AATGGCCG,0.215
ACAGACAA,-0.0782
GCCATGGC,-0.00383
ATCCGTAA,0.219
AATACGCA,0.0244
CATTTTGC,-0.0305
TCCAGCGA,-0.116
AACGGGGG,-0.0704
GATTGCAA,-0.0312
CAGTCGGA,0.0698
AATCGTTA,0.021

# Sample 4 — technique: RNA Bind-n-Seq; form: RNA; sample: in vitro; concentration: 200 nM; setting: whole 134-nt RNA, ends assumed; with: 150 mM KCl; relative to: input library; direction: higher = stronger binding
# Target: Fragile X messenger ribonucleoprotein 1, C-terminal low-complexity region (Fmr1, Mus musculus, UniProt P35922)
# Shared flanks, not repeated: GGGAGUUCUACAGUCCGACGAUC … UGGAAUUCUCGGGUGUCAAGG
Oligonucleotide,log2 enrichment
GUCCUGUGCUACACAUCGUAUGUACCGAAUCGGGGUGGGGAAAAAAAGGGGAAAGGGGAAAGUAUUAUGUUACGCCGUUCGGAUCUGCAC,0.457
AGUCCUGUGCUACACAUCGUAUGUACCGAAUCGGGGAGGGGUUUUUGGGGAAAGGGGAAAGUAUUAUGUUACGCCGUUCGGAUCUGCACU,0.85
CCUGUGCUACACAUCGUAUGUACCGAAUCGGGGAAAAAAGGAAAAAAGGGAAAAAAGGGGAAAGUAUUAUGUUACGCCGUUCGGAUCUGC,-0.475
CAAGUCCUGUGCUACACAUCGUAUGUACCGAAUCGGGGUUUGGUUUGGGUUUGGGAAAGUAUUAUGUUACGCCGUUCGGAUCUGCACUUC,-0.00894
AGUCCUGUGCUACACAUCGUAUGUACCGAAUCGGGAAAGGGAAAGGGUUUUUUUGGGAAAGUAUUAUGUUACGCCGUUCGGAUCUGCACU,0.0476
CCUCAAGUCCUGUGCUACACAUCGUAUGUACCGAAUCGGGUGGGUGGGAGGGAAAGUAUUAUGUUACGCCGUUCGGAUCUGCACUUCCAG,0.879
CAAGUCCUGUGCUACACAUCGUAUGUACCGAAUCGGGAAAGGGUGGGAAAAAGGGAAAGUAUUAUGUUACGCCGUUCGGAUCUGCACUUC,0.961
UCCUGUGCUACACAUCGUAUGUACCGAAUCGGGAAAAAAAGGGUUUGGGUUUUUUUGGGAAAGUAUUAUGUUACGCCGUUCGGAUCUGCA,-0.138
UGGCCCUGGUGGCAUGCGGGGAGGAAGAGGUGGCCUCAUGGAUCGUGGUGGUCCCGGUGGAUUGUUCAGAGGUGGCCGUGGUGGAGACAG,0.0944
ACCAUGCAGGUGGGCAUCUUUGGUAAGUGGGGCAAGGGGGGGAUAGGGAGGGGGGUAACACUUUGGGAACAGGUGGUCCCAGGUCGUUUC,0.776
AAGUCCUGUGCUACACAUCGUAUGUACCGAAUCGGGGCCCGGGGCCCGGGGCCCGGGAAAGUAUUAUGUUACGCCGUUCGGAUCUGCACU,-0.849
CCUCAAGUCCUGUGCUACACAUCGUAUGUACCGAAUCGGAAAAAGGUGGAGGAAAGUAUUAUGUUACGCCGUUCGGAUCUGCACUUCCAG,0.295
ACCAUGCAGGUGGGCAUCUUUGGGAAGUGGGGCAAGGGGGGGAUAGGGGGGGGGGUAACACUUUGGGAACAGGUGGUCCCAGGUCGUUUC,1.08
UCCUGUGCUACACAUCGUAUGUACCGAAUCGGGCCCCCCGGGGCCCCCCGGGCCCCCCGGAAAGUAUUAUGUUACGCCGUUCGGAUCUGC,-0.31
